Measured values from different studies.
Protocols differ between the studies behind these lines. ± marks the error that the study gave.
cas9: CRISPR-associated endonuclease Cas9/Csn1 (cas9, Streptococcus pyogenes serotype M1, UniProt Q99ZW2)
ACHE: Acetylcholinesterase (ACHE, Homo sapiens, UniProt P22303)
Sequence of UniProt P22303 (whole entry, looked up): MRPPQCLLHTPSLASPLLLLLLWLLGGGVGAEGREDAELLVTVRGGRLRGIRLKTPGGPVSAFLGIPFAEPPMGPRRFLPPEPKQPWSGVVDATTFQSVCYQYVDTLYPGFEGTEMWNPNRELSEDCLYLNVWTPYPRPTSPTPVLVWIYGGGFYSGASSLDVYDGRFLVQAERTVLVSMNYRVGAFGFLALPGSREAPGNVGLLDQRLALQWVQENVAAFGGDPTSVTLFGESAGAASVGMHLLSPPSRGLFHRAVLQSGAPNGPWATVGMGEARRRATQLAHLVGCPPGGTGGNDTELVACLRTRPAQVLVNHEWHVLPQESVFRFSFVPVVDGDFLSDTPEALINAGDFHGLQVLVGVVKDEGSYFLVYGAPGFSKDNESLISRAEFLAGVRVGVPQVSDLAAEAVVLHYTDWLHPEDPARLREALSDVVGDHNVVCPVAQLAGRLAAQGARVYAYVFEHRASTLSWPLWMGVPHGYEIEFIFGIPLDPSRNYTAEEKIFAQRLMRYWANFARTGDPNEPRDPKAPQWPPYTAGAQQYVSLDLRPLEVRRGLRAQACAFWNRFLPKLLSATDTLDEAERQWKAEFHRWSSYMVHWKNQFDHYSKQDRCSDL
Sequence of UniProt O43293 (whole entry, looked up): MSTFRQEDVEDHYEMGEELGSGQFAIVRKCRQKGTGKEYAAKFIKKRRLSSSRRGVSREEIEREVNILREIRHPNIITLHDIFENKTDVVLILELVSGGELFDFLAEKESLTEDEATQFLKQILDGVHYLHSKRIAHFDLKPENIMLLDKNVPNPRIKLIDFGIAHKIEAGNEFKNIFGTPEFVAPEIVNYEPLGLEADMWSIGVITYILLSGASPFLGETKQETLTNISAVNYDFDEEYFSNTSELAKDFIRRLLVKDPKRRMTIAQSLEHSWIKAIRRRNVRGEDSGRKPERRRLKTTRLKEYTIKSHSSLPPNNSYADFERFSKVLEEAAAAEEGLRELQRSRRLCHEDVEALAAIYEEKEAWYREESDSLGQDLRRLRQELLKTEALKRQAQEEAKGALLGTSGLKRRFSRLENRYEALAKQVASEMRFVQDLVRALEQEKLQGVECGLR
Sequence of UniProt P35869 (whole entry, looked up): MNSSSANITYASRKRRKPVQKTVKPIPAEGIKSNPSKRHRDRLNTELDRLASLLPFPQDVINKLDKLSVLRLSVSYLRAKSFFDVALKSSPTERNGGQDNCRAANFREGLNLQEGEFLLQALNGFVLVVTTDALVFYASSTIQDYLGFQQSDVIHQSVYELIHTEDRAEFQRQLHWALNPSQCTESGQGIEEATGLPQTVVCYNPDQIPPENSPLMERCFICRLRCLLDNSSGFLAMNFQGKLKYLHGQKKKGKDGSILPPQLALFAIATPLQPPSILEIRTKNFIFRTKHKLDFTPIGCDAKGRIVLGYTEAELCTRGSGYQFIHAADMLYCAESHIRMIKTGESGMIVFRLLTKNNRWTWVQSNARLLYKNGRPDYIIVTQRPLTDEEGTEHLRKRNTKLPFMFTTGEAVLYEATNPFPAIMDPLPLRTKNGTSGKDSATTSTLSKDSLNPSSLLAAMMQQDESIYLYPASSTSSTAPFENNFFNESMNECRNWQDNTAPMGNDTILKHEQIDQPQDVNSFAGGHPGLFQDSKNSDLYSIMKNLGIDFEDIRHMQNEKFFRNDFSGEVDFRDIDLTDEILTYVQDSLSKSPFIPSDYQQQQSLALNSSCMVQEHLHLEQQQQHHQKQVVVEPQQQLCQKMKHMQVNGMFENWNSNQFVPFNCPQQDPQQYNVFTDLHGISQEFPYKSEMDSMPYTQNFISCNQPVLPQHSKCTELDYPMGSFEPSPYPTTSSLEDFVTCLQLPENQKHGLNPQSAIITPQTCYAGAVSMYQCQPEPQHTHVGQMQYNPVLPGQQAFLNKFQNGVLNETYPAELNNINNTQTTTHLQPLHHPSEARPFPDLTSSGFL
Sequence of UniProt Q53591 (whole entry, looked up): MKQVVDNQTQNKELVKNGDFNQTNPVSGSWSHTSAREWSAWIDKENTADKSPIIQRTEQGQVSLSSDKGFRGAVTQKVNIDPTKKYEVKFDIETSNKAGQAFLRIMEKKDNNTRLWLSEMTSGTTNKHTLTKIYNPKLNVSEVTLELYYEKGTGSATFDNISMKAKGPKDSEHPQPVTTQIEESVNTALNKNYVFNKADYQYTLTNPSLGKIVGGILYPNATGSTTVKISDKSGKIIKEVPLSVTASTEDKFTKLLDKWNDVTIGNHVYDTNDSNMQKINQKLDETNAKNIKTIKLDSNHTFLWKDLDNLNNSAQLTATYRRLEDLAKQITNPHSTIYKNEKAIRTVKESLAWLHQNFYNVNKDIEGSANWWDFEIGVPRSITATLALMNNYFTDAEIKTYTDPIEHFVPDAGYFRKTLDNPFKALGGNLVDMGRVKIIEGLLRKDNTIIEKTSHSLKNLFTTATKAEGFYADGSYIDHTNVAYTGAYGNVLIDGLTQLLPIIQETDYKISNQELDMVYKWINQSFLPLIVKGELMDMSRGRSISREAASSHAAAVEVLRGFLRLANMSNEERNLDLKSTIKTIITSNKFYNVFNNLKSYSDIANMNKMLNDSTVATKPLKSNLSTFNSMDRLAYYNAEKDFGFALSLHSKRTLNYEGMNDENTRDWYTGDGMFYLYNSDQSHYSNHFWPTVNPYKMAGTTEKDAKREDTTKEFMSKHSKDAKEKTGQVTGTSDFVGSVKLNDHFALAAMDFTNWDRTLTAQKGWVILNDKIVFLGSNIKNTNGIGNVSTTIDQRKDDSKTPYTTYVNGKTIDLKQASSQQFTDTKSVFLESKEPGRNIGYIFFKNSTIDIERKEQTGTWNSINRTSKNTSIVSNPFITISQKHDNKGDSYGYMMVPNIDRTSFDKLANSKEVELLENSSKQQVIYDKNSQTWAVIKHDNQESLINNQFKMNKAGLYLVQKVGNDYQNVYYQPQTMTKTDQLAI
Sequence of UniProt Q9GZZ6 (whole entry, looked up): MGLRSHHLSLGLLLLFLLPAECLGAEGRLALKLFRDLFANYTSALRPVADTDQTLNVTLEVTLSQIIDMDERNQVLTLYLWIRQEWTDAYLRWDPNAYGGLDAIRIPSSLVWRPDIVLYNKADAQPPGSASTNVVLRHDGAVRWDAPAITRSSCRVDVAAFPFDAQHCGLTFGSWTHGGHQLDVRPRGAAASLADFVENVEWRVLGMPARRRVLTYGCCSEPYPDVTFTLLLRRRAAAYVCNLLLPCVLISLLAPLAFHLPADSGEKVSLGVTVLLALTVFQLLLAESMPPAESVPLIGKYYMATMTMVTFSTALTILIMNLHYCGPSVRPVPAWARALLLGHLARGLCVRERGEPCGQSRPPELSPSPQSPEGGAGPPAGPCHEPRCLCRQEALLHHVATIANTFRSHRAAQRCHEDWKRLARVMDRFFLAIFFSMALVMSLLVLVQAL
Sequence of UniProt P0A6L2 (whole entry, looked up): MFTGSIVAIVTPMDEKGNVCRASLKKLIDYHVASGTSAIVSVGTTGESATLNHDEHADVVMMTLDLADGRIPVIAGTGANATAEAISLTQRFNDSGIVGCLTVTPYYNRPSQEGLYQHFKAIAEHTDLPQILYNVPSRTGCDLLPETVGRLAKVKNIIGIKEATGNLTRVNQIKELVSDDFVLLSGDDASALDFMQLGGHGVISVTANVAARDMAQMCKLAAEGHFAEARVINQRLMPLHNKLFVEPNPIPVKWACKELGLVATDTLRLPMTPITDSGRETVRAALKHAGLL
Sequence of UniProt Q9UGM1 (whole entry, looked up): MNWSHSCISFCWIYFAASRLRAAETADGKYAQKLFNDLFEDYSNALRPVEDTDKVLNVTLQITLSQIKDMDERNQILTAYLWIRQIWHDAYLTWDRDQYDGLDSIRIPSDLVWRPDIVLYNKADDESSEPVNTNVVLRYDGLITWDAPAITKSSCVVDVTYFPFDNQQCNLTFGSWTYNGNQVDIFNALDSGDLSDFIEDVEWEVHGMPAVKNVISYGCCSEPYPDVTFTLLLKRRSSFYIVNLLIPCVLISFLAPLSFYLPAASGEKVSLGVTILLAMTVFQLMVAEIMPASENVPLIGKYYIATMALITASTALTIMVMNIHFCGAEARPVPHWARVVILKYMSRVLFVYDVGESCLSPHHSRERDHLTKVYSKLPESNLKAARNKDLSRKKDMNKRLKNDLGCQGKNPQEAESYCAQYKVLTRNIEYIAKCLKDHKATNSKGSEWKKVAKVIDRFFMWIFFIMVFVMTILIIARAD
Sequence of UniProt Q9GZQ4 (whole entry, looked up): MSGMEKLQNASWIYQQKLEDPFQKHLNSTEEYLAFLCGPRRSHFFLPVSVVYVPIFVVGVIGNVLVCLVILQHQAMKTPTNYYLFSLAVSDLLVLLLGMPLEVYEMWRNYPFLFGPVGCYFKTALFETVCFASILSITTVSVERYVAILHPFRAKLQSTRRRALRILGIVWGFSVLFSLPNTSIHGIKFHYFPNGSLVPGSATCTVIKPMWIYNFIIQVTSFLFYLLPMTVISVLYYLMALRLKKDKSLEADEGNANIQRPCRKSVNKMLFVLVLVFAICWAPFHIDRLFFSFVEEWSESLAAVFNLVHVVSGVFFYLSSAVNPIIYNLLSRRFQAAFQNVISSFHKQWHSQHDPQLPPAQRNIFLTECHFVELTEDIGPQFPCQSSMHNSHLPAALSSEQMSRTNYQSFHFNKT

CCCCCCCCCCCCCCCNC(=O)C1CCCCC1 — IC50 (Hyaluronate lyase (hylB, Streptococcus agalactiae serotype III, UniProt Q53591); enzyme activity, HILIC UPLC-MS, item: hyaluronan disaccharide): 30.4 ± 9.8 µM
COc1cc(Nc2ncc(F)c(Nc3ccc4c(n3)NC(=O)C(C)(C)O4)n2)cc(OC)c1OC — IC50 (Neuromedin-U receptor 2 (NMUR2, Homo sapiens, UniProt Q9GZQ4)): > 10 µM
C[C@@H](O)[C@@H](CO)NC(=O)[C@@H](CCCNC(=N)N)NC(=O)[C@@H]1CCCN1C(=O)[C@@H]1CSSC[C@H](NC(=O)[C@H](Cc2ccccc2)NC(=O)CN2CCN(CC(=O)O)CCN(CC(=O)O)CCN(CC(=O)O)CC2)C(=O)N[C@@H](Cc2ccc(O)cc2)C(=O)N[C@@H](Cc2ccccc2)C(=O)N[C@@H](CCC(N)=O)C(=O)N[C@@H](CC(N)=O)C(=O)N1 [gallium-68 labelled] — tissue uptake (Wistar rat, brain; intravenous, 8 MBq, 30 min, group mean): 0.04 %ID/g
CNC(=O)Oc1ccccc1OC(C)C — IC50 (Acetylcholinesterase (Rhipicephalus microplus, UniProt O45210, W384F)): 0.047 µM
N[C@H](C(=O)O)[C@@H]1CC(Cl)=NO1 — IC50 (GMP synthase (Trypanosoma brucei, UniProt Q57V01); inhibitor): 26 µM
COc1ccc(N2C(=O)N(c3c(C)cccc3Cl)Cc3cnc(Nc4ccc(C5CCN(C)CC5)cc4OC)nc32)nc1 — inhibition (Mitogen-activated protein kinase kinase kinase 9 (MAP3K9, Homo sapiens, UniProt P80192); kinase activity, inhibitor; 0.5 µM, MLK1): 27%
Cc1cc(-c2ccc(/N=N/c3ccc4c(S(=O)(=O)O)cc(S(=O)(=O)O)c(N)c4c3O)c(C)c2)ccc1/N=N/c1ccc2c(S(=O)(=O)O)cc(S(=O)(=O)O)c(N)c2c1O — IC50 (cas9; circular plasmid substrate; Streptococcus pyogenes): 20 to 50 µM
Clc1ccc(-c2ccc(Cl)cc2Cl)cc1 — IC50 (Aryl hydrocarbon receptor (AHR, Homo sapiens, UniProt P35869); reporter gene, antagonist; AZ-AHR cells; 24 h, together with: TCDD 4.5 nM): 17 µM
C[C@H]1CN(c2n[nH]c3nc(N[C@H]4CC[C@H](NS(=O)(=O)CCC(F)(F)F)CC4)ncc23)CCO1 — IC50 (Death-associated protein kinase 3 (DAPK3, Homo sapiens, UniProt O43293); biochemical): ≥ 20 µM
CCCCCCCCOc1ccccc1C(=O)Nc1ccc(C(=O)OCC[N+](C)(CC)CC)cc1 — IC50 (cas9; linear substrate; Streptococcus pyogenes): 20 to 50 µM
Nc1c2c(nc3c1C(c1ccc(Cl)c(Cl)c1)c1ccc(O)cc1O3)CCCC2 (stereo not shown) — IC50 (ACHE; enzyme activity, inhibitor): 5.31 µM
COc1cc2c(Oc3ccc4[nH]c(C)cc4c3F)ccnc2cc1OCC1(N)CC1 — grade 3 Hypertension (paediatric recurrent refractory sarcoma; 8 mg/kg): 6.7%
CC(C)C[C@H](NC(=O)[C@@H](N)CCC(N)=O)C(=O)N[C@H](C(=O)N1CCC[C@H]1C(=O)N[C@H](C(=O)N[C@@H](Cc1c[nH]c2ccccc12)C(=O)N[C@@H](CCCNC(=N)N)C(=O)N[C@H](C(=O)N[C@@H](Cc1ccc(O)cc1)C(=O)O)C(C)C)[C@@H](C)O)[C@@H](C)O — IC50 (HLA class I histocompatibility antigen, B alpha chain (Homo sapiens, UniProt P01889); peptide-MHC binding, radioligand competition binding): > 70 µM
CN(C)c1ccc(Nc2c3ccc(NC(=O)CCN4CCCC4)cc3nc3cc(NC(=O)CCN4CCCC4)ccc23)cc1 — IC50 (Gag polyprotein, nucleocapsid protein p7 (gag, Human immunodeficiency virus type 1 group M subtype B, UniProt P04591); NCp7-RNA binding, AlphaScreen; HIV-1; together with: 25 nM NCp7, 12.5 nM RNA): 1.29 µM
O=C(O)c1cccc(C(=O)O)n1 — IC50 (4-hydroxy-tetrahydrodipicolinate synthase (dapA, Escherichia coli K-12, UniProt P0A6L2); enzyme activity, inhibitor; 25 °C): 15600 µM
Nc1c2c(nc3c1C(c1ccc(Cl)c(Cl)c1)c1ccc(OS(=O)(=O)c4ccccc4)cc1O3)CCCC2 (stereo not shown) — IC50 (ACHE; enzyme activity, inhibitor): 9.7 µM
CO[C@H]1C[C@@H]2CC[C@@H](C)[C@@](O)(O2)C(=O)C(=O)N2CCCC[C@H]2C(=O)O[C@H]([C@H](C)C[C@@H]2CC[C@@H](OC(=O)NCCOCCOCCOCCOCCOCCOCCOCCOCCC(=O)N3CCc4cc(Cn5nc(-c6ccc7oc(N)nc7c6)c6c(N)ncnc65)ccc4C3)[C@H](OC)C2)C[C@@H](O)[C@H](C)/C=C(\C)[C@@H](O)[C@@H](OC)C(=O)[C@H](C)C[C@H](C)/C=C/C=C/C=C/1C — maculopapular rash TEAE incidence (dose-escalation trial; patients with advanced solid tumours; intravenous, all doses weekly, any grade): 19.3%
CC[C@H](C)[C@@H]1NC(=O)[C@@H]2CCCN2C(=O)[C@H](CC(C)C)NC(=O)[C@H](CC(C)C)NC(=O)CNC(=O)[C@@H](NC(=O)[C@@H](NC(=O)[C@H](CC(=O)O)NC(=O)CNC(=O)[C@@H](NC(=O)[C@H](C)NC(=O)CNC(=O)[C@H](CCCCN)NC(=O)[C@H](CC(C)C)NC(=O)[C@H](CC(C)C)NC(=O)[C@H](CCCCN)NC(=O)CNC(=O)[C@@H](NC(=O)[C@@H](N)CC(C)C)C(C)C)C(C)C)C(C)C)CSSC[C@@H](C(=O)O)NC1=O — log2 fold change (RNA-seq, item: Ccdc39; mouse, traumatic brain injury model, frontal cortex and hippocampus; dose not given; relative to: TBI alone): 0.869
CN(C)CCC=C1c2ccccc2COc2ccccc21 — IC50 (Neuronal acetylcholine receptor; alpha9/alpha10 (Homo sapiens, UniProt Q9GZZ6+Q9UGM1); inhibitor): 0.13 ± 0.05 µM
CC[C@H](C)[C@H](NC(=O)[C@H](Cc1ccccc1)NC(=O)[C@H](CCC(=O)O)NC(=O)[C@H](CCCNC(=N)N)NC(=O)[C@H](C)NC(=O)[C@H](C)NC(=O)[C@H](CCC(N)=O)NC(=O)[C@H](CCC(=O)O)NC(=O)[C@H](CCC(=O)O)NC(=O)[C@H](CC(C)C)NC(=O)[C@H](Cc1ccc(O)cc1)NC(=O)[C@H](CO)NC(=O)[C@H](CO)NC(=O)[C@@H](NC(=O)[C@H](CC(=O)O)NC(=O)[C@H](CO)NC(=O)[C@@H](NC(=O)[C@H](Cc1ccccc1)NC(=O)[C@@H](NC(=O)CNC(=O)[C@H](CCC(=O)O)NC(=O)[C@H](C)NC(=O)CCc1c[nH]cn1)[C@@H](C)O)[C@@H](C)O)C(C)C)C(=O)N[C@@H](C)C(=O)N[C@@H](Cc1c[nH]c2ccccc12)C(=O)N[C@@H](CC(C)C)C(=O)N[C@H](C(=O)N[C@@H](CCCNC(=N)N)C(=O)NCC(=O)N[C@@H](CCCNC(=N)N)C(=O)N[C@@H](CCCCNC(=O)COCCOCCNC(=O)COCCOCCNC(=O)CC[C@H](NC(=O)CCCCCCCCCCCCCCCCC(=O)O)C(=O)O)C(=O)NCC(=O)NCC(=O)N[C@@H](CO)C(=O)N[C@@H](CCCCNc1c(NCCCCCN(O)C(=O)CCC(=O)NCCCCCN(O)C(=O)CCC(=O)NCCCCCN(O)C(C)=O)c(=O)c1=O)C(=O)O)C(C)C [zirconium-89 labelled] — tissue uptake (ex vivo gamma counting; rat, skin at injection site; subcutaneous, 3 nmol/kg, 4 h): 5.14 %ID/g
C[C@]1(CO)Cc2ncn(-c3ccc(C#N)c(Cl)c3)c2C(=O)O1 — subjects with any TEAE (human; 80 mg multiple doses, fasted): 77.8%
C[C@H]1COCCN1c1nc(NCc2cccnc2C(F)(F)F)c2cccnc2n1 — IC50 (Potassium voltage-gated channel subfamily KQT member 1, with KCNE1 (KCNQ1, Homo sapiens, UniProt P51787); inhibitor): > 33 µM
